Literature values as cited in several papers.
Each line is one published result; not all experiments were run side by side. Numbers after ± are the reported error.

SMILES	target	assay	system	setting	IC50 [µM]
Nc1nc(Nc2ccccc2)sc1C(=O)c1ccccc1	CDK2	enzyme activity, inhibitor	–	–	0.93
CC(=NN=C1SCC(=O)N1Cc1cn(C2OCC(O)C(O)C2O)nn1)c1cccnc1 (stereo not drawn)	CDK2	enzyme activity, inhibitor	–	–	0.18
Cc1cc(C)c(CNC(=O)c2c(O)c(O)cc3c(O)c(-c4c(C)cc5c(C(=O)NCc6c(C)cc(C)cc6C)c(O)c(O)cc5c4O)c(C)cc23)c(C)c1	Mcl-1 (human)	binding, fluorescence polarization	–	with: fluorescent BH3 Bid peptide	~1
NS(=O)(=O)Oc1ccc2c3c(c(=O)oc2c1)CCCC3	steroid sulfatase	–	placental microsomes	–	0.07
COc1ccccc1C(=O)Nc1cccc(-c2nc3ncccc3o2)c1	Plasmodium falciparum ENT1	[3H]adenosine uptake	PfENT1-expressing yeast	–	0.0109 ± 0.0068
COC(=O)c1ccc2c(c1)NC(=O)/C2=C(\Nc1ccc2c(c1)CCN2C(=O)CN1CCOCC1)c1ccccc1	PDGFR alpha	inhibitor	–	–	0.026
CCc1ccc(CCNC(=O)c2c(O)c(O)cc3c(O)c(-c4c(C)cc5c(C(=O)NCCc6ccc(CC)cc6)c(O)c(O)cc5c4O)c(C)cc23)cc1	Bcl-xL (human)	binding, fluorescence polarization	–	with: fluorescent BH3 Bid peptide	~1
COc1cc(COc2ccc3c(C)cc(=O)oc3c2)cc(OC)c1OC	Plasmodium falciparum ENT1	[3H]adenosine uptake	PfENT1-expressing yeast	–	0.0024 ± 0.0015
COc1ccc(N2CCN(C(=O)ON3C(=O)C4CN(CC5CCN(Cc6ccccc6)CC5)CCN4C3=O)CC2)cc1 (stereo not drawn)	PPT1, recombinant	enzyme activity, inhibitor	–	–	0.1
Cc1cc(C)c(S(=O)(=O)N(C)CC(=O)N(Cc2ccc(C3CCCCC3)cc2)c2ccc(C(=O)O)c(O)c2)c(C)c1	STAT5	tyrosine phosphorylation, inhibitor	whole cells	–	~20
Cc1ccc(C2=NN=C(NC(=S)Nc3ccc(Cl)cc3)SC2)cc1	BRAF V600E	–	–	–	0.178 ± 0.004
O=c1cc2n(cc1O)-c1ccccc1SC2	membrane-bound catechol O-methyltransferase	inhibitor	–	–	0.1
CC[C@H](C)[C@H](NC(C)=O)C(=O)N[C@H]1CSSC[C@@H](C(=O)N[C@H](C(N)=O)[C@@H](C)O)NC(=O)[C@H](CCCNC(=N)N)NC(=O)[C@H](Cc2c[nH]cn2)NC(=O)[C@H](C)NC(=O)CNC(=O)[C@H](Cc2c[nH]c3ccccc23)NC(=O)[C@H](CC(=O)O)NC(=O)[C@H](CCC(N)=O)NC(=O)[C@H](Cc2ccc3ccccc3c2)NC(=O)[C@H](C(C)C)NC1=O	complement classical pathway	ELISA	–	–	0.55
COc1cc(C(C)C)c(Oc2cnc(N)nc2N)cc1I	P2X7 receptor	inhibitor	–	–	> 10
Cc1cc(CN2CCN(c3c(Br)cnc4[nH]c(-c5ccc(N6CCN(C)CC6)cc5)nc34)CC2)no1	Aurora B kinase	inhibitor	–	–	0.025
CCn1c(SCC(=O)Nc2cccc(C(=O)/C=C/c3ccc(OC)cc3)c2)nc2ccccc2c1=O	EGFR	inhibitor	–	–	2.3
COc1ccc(S(=O)(=O)n2nc(OC(=O)c3ccccc3)cc2N)cc1	West Nile virus NS2B-NS3 protease	enzyme activity, inhibitor	–	23	0.105
O=C(Nc1cccc(OCC2CCCN2)n1)Nc1csc(-c2ccncc2)n1 (stereo not drawn)	CDK5	ATP-competitive inhibitor	–	–	0.005

SMILES	target	assay	system	setting	IC50 [µM]
Cc1ccc(C(=O)Nc2cc(C(=O)O)cc(-c3ccc(C4CCNCC4)cc3)c2)cc1	P2Y14 receptor	antagonist	–	–	0.00177
COc1cnc(COc2ccc(F)c(F)c2)cc1-c1cc2c([nH]1)CCNC2=O	casein kinase 1 gamma isoforms	enzyme activity, inhibitor	–	–	< 0.01
CCOC(=O)c1csc(NC(=S)Nc2ccc(Oc3ccccc3)cc2)n1	DHFR	enzyme activity, inhibitor	–	–	0.05
COc1ccccc1NC(=O)N[C@H](C(=O)Nc1ccc(C(=O)NO)cc1)c1ccccc1	HDAC	enzyme activity	HeLa nuclear extract	–	0.0075
N#Cc1ccc(-c2csc(N3N=C(c4ccc(N5CCOCC5)cc4)CC3c3ccc(Cl)cc3)n2)cc1 (stereo not drawn)	HER2	–	–	–	2.28
c1ccc2cc(-c3noc(C4CCNCC4)n3)ccc2c1	farnesoid X receptor	antagonist	–	–	0.58
CCCCCCCCCc1nc2cc(Cl)ccc2c(=O)n1CCN	PqsR, Pseudomonas aeruginosa	inhibitor	–	–	19.3
N[C@@H]1CCN1Cc1ccc(Oc2cccc(F)c2)cc1	MAO-B	inhibitor	–	–	0.021
O=CN1CCN(c2ccc(/C=C3\C(=O)Nc4ccccc43)cc2)CC1	FGFR1	inhibitor	–	–	10 to 20
Cc1cc(N)c2ccccc2[n+]1CCCCCCCCCCCCCC[n+]1c(C)cc(N)c2ccccc21	PKCα	enzyme activity, inhibitor	–	–	2.6
CCOc1ccc(Cc2cc(C3OC(SC)C(O)C(O)C3OC3OC(C(=O)O)C(O)C(O)C3O)ccc2Cl)cc1 (stereo not drawn)	SGLT2	–	–	–	> 10
CSc1nc(-c2ccc(F)cc2)c(-c2ccnc(Nc3ccc(N)cc3)c2)[nH]1	JNK3	inhibitor	–	–	0.024
CCOC(=O)C1=C(CSC(=S)N(C2CCCCC2)C2CCCCC2)N(C)C(=O)NC1c1ccccc1 (stereo not drawn)	mTOR	–	–	–	0.64
CN(C)CCCOc1ccc(C(=O)N2c3ccccc3Oc3ccccc32)cc1	CaV3.2	calcium influx, inhibitor, fluorescence imaging	–	–	55
Cc1c(C(=O)O)ccc2c1NC(c1cccc(C(F)(F)F)c1)[C@H]1CC=C[C@@H]21 (stereo partly drawn)	GroEL/GroES	protein refolding	–	–	< 10
CC(C)C[C@@H](CN[C@H](Cc1ccccc1)C(N)=O)NC(=O)[C@H](Cc1c[nH]cn1)NC(=O)CNC(=O)[C@@H](NC(=O)[C@H](C)NC(=O)[C@H](Cc1c[nH]c2ccccc12)NC(=O)[C@H](CCC(N)=O)NC(=O)[C@H](N)Cc1ccccc1)C(C)C	mouse GRP receptor	binding	–	literature species comparison	0.0125 ± 0.0018
Cc1ccc2nc(SCc3cn(-c4cccc(C(=O)O)c4)nn3)n(Cc3ccccc3)c(=O)c2c1	Hsp90	inhibitor	–	–	0.0251
O=C(O)CCCc1ccccc1	class IIa HDACs	–	–	–	> 2000
